Assay results pooled from the literature.
Every numbered part comes from another study and shows a few of its results, in no order.
Chain of UniProt Q5S007 (whole entry, unmodified, looked up): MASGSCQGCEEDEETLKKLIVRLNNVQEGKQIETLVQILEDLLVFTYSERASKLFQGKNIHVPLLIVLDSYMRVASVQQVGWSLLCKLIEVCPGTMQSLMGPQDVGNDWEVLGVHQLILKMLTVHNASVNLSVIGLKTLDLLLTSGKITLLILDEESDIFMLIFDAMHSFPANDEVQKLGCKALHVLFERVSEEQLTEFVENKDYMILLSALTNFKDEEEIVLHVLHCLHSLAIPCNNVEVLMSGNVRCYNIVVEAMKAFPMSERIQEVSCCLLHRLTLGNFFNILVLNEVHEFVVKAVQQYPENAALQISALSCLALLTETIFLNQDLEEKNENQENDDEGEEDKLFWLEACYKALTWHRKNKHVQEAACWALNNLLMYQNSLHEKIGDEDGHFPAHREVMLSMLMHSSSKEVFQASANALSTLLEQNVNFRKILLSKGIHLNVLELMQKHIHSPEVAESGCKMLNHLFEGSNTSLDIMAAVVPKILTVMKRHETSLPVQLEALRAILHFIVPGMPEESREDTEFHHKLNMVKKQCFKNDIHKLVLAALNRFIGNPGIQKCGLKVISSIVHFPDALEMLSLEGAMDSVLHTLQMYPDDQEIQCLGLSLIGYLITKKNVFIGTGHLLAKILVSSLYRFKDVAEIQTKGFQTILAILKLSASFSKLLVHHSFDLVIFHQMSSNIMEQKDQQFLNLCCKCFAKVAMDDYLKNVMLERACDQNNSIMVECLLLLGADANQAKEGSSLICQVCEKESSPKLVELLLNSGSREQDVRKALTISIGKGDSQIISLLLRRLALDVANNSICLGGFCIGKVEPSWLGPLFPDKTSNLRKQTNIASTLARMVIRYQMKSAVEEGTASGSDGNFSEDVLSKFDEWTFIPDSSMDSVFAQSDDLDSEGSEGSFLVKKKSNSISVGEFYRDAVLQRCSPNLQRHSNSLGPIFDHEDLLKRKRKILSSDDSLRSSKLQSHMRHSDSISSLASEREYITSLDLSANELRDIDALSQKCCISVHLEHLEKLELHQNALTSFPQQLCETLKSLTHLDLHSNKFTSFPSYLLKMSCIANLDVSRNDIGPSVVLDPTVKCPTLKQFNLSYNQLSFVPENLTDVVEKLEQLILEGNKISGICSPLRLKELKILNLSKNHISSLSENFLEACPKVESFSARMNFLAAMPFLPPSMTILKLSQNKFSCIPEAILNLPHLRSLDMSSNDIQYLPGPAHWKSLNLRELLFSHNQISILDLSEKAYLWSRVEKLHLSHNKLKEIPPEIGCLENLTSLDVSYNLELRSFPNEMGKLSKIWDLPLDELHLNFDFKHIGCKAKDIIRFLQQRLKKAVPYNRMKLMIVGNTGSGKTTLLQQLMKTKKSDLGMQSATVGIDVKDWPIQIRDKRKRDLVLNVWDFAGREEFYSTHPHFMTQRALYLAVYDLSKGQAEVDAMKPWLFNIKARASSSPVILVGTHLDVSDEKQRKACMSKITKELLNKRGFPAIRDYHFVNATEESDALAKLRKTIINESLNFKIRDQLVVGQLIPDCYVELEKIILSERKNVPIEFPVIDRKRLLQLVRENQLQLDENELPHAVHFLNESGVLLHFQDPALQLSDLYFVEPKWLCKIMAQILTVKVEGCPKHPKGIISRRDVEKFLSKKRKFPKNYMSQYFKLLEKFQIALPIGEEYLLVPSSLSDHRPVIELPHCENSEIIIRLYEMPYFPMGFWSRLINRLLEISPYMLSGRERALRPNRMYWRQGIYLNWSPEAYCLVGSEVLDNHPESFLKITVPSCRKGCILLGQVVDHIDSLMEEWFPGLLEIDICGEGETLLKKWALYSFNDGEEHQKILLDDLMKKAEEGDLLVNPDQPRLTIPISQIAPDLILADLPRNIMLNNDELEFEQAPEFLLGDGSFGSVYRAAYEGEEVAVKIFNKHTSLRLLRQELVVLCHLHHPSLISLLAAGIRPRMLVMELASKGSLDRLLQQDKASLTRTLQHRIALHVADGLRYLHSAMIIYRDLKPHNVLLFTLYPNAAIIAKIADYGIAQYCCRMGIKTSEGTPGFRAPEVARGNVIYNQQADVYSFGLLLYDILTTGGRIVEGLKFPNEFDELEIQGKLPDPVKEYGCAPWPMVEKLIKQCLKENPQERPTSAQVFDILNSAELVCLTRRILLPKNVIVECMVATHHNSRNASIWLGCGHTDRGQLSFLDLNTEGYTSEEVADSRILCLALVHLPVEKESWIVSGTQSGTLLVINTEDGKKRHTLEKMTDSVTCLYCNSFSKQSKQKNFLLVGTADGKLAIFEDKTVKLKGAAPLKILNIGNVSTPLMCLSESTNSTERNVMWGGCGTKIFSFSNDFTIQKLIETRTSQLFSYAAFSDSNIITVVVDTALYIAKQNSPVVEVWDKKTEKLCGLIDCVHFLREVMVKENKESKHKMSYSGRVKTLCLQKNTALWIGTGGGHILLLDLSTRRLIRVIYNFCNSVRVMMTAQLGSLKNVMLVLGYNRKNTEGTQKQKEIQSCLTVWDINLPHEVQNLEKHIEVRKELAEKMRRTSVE
Chain of UniProt Q9Y3S1 (whole entry, looked up): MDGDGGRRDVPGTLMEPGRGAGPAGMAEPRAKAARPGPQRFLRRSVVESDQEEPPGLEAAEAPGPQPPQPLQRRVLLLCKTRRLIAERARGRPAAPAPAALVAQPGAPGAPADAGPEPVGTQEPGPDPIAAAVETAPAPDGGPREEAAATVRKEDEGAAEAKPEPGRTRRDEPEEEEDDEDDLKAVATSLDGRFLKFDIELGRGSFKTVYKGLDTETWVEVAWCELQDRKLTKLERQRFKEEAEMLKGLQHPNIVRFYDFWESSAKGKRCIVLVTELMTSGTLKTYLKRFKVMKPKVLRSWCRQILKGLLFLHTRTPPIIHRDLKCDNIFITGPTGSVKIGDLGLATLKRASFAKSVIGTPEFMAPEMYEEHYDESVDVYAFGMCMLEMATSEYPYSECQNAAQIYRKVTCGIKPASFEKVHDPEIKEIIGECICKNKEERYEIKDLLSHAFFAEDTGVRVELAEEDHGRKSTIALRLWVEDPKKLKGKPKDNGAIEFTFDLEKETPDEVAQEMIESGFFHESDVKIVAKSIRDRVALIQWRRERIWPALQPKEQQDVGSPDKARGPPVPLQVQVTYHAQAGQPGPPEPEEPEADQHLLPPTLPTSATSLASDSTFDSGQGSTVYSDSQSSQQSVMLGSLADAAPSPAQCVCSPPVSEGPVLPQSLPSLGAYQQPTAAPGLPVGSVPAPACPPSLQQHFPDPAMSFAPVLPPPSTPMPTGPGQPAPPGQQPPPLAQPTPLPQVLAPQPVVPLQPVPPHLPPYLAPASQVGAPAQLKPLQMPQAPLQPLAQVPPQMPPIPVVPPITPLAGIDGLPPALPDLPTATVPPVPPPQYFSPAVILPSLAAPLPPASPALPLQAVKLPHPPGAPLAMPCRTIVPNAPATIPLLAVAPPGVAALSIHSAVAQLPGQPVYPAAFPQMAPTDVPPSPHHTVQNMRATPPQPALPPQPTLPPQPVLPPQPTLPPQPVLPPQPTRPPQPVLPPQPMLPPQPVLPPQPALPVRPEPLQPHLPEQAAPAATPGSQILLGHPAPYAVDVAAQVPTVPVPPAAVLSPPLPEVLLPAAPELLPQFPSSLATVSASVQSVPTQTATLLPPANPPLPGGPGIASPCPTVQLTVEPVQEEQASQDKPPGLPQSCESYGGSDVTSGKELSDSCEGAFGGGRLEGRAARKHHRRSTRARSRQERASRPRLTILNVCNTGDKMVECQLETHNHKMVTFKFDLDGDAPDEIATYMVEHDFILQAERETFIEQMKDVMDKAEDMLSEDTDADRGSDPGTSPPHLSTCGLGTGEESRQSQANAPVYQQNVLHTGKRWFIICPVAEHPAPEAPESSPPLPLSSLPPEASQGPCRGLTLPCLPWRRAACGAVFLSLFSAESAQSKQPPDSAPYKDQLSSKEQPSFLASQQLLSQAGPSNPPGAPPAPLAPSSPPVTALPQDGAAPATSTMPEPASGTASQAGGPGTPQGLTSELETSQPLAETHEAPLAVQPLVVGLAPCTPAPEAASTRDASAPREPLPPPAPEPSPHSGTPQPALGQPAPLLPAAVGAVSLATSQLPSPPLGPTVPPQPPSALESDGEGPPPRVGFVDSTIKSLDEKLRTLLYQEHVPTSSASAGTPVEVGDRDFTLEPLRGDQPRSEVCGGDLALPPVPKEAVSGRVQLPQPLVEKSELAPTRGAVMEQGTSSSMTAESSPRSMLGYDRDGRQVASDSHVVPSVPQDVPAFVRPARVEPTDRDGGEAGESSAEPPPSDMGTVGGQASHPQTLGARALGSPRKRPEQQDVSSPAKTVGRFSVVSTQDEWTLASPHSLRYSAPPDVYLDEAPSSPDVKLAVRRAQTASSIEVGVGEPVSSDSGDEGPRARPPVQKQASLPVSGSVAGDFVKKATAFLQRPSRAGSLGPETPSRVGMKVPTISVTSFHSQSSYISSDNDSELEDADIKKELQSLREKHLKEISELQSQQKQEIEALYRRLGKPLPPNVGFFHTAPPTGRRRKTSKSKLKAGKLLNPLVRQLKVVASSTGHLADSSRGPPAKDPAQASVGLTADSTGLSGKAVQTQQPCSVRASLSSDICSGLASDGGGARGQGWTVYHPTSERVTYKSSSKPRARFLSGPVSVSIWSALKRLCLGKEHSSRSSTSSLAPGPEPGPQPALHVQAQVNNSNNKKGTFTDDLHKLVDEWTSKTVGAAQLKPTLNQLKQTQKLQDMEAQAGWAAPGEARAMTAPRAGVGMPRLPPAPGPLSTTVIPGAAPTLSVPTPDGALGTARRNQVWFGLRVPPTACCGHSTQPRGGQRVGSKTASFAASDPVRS
Chain of UniProt P48729 (whole entry, looked up): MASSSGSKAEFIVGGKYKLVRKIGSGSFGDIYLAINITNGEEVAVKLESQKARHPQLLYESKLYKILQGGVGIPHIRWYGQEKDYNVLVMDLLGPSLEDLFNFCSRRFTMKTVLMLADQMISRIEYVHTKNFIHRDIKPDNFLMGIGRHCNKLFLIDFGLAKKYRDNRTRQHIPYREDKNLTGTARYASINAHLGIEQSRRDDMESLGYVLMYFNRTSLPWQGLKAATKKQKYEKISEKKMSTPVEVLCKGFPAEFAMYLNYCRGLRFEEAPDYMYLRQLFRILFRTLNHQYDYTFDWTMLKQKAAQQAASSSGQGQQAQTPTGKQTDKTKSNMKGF

Study 1
Cell line: mouse MPNST tumor cells
Technique: high-content nuclear imaging
Item: cell number
Concentration: 10 µM
Time: 12 h
Notes: mean of 2 replicates
Baseline: plate mean
Direction: higher = more cells
Measurement: nuclei count
Nc1nc(OCC2CCCCC2)c2[nH]cnc2n1: 1.85 z-score
CC(C)(C)c1ccc(C(O)CCCN2CCC(C(O)(c3ccccc3)c3ccccc3)CC2)cc1 (centres unmarked): -6.57 z-score
CN1CCN(c2c(F)cc3c(=O)c(C(=O)O)cn(CCF)c3c2F)CC1: 1.03 z-score
CCN(CC)c1ccc(C=NNC(=O)c2ccc(O)cc2)cc1: 0.577 z-score
CCOC(=O)c1ccc(CN(Cc2ccc(-c3cccc(S(C)(=O)=O)c3)cc2)S(=O)(=O)c2c(C)cc(C)cc2C)o1: 0.561 z-score
Nc1nc(NCC2CCC(CNS(=O)(=O)c3cccc4ccccc34)CC2)nc2ccccc12 (centres unmarked): -5.83 z-score
C=CC[C@@H]1/C=C(\C)C[C@H](C)C[C@H](OC)[C@H]2O[C@@](O)(C(=O)C(=O)N3CCCC[C@H]3C(=O)O[C@H](/C(C)=C/[C@@H]3CC[C@@H](O)[C@H](OC)C3)[C@H](C)[C@@H](O)CC1=O)[C@H](C)C[C@@H]2OC: 4.44 z-score
Nc1nc(CC(=O)Nc2ccc(CCNC[C@H](O)c3ccccc3)cc2)cs1: 1.7 z-score

Study 2
Structure (SMILES): c1ccc(-c2n[nH]c3c2oc2ccccc23)cc1
Read-out: enzyme activity
Mode: inhibitor
Concentration: 0.5 µM
Baseline: control
Measurement: remaining activity
PRKCD (Homo sapiens, UniProt Q05655): 96.7%
MAP2K6 (Homo sapiens, UniProt P52564): 92.9%
NEK4 (Homo sapiens, UniProt P51957): 92.9%
PRKCI (Homo sapiens, UniProt P41743): 85.9%
MAPK12 (Homo sapiens, UniProt P53778): 100%
MAP3K10 (Homo sapiens, UniProt Q02779): 91.4%
BTK (Homo sapiens, UniProt Q06187): 96.4%
CSNK1A1 (Homo sapiens, UniProt P48729): 73.8%
MKNK2 (Homo sapiens, UniProt Q9HBH9): 70%
MAP4K2 (Homo sapiens, UniProt Q12851): 61.8%
PLK2 (Homo sapiens, UniProt Q9NYY3): 102%
IRAK4 (Homo sapiens, UniProt Q9NWZ3): 92.7%
LRRK2 (Homo sapiens, UniProt Q5S007): 91.4%
Cyclin-dependent kinase 9, with cyclin T1 (CDK9, Homo sapiens, UniProt P50750): 83.9%
CSNK2A1 (Homo sapiens, UniProt P68400): 87.2%
EPHA5 (Homo sapiens, UniProt P54756): 92.1%
LYN (Homo sapiens, UniProt P07948): 108%
WNK2 (Homo sapiens, UniProt Q9Y3S1): 102%
MAPK13 (Homo sapiens, UniProt O15264): 109%
PRKG1 (Homo sapiens, UniProt Q13976): 102%
CHEK1 (Homo sapiens, UniProt O14757): 117%
AKT3 (Homo sapiens, UniProt Q9Y243): 84.4%
KIT (Homo sapiens, UniProt P10721): 38%

Study 3
Cell line: HaCaT
Concentration: 100 µM
Time: 18 h
Measurement: viability
COc1ccc(-c2ccc3cc(C(=O)O)ccc3c2)cc1[C@]12C[C@H]3C[C@H](C[C@H](C3)C1)C2: 24.9%
CN1CCC[C@@H]1Cc1c[nH]c2ccc(CCS(=O)(=O)c3ccccc3)cc12: 95.7%
Cc1[nH]c2ccccc2c1CCNCc1ccc(/C=C/C(=O)NO)cc1: 19.3%
Cc1nnc(SCC2=C(C(=O)O)N3C(=O)[C@@H](NC(=O)Cn4cnnn4)[C@H]3SC2)s1: 110%
Nc1c2ccccc2nc2ccccc12: 23.7%
CC(=O)OCC[N+](C)(C)C: 95.4%
O=C(O)c1cc(/N=N/c2ccc(O)c(C(=O)O)c2)ccc1O: 113%
COc1ncnc(NS(=O)(=O)c2ccc(N)cc2)c1OC: 97%

Study 4
Compound: CCCCN(CCCC)C(=O)CN1C[C@@H](c2cc(OC)c3c(c2)OCO3)[C@H](C(=O)O)[C@H]1CC(C)(C)CCC
Read-out: cell-free assay
Technique: competition with immobilised ligand
Concentration: 1 µM
Measurement: remaining binding
TTK (Homo sapiens, UniProt P33981): 100%
WNK3 (Homo sapiens, UniProt Q9BYP7): 65.5%
TNK2 (Homo sapiens, UniProt Q07912): 91.6%
STK16 (Homo sapiens, UniProt O75716): 100%
SGK3 (Homo sapiens, UniProt Q96BR1): 100%
CDK11B (Homo sapiens, UniProt P21127): 100%
CAMK4 (Homo sapiens, UniProt Q16566): 100%
LRRK2 (Homo sapiens, UniProt Q5S007, G2019S): 100%

Excerpt of the above (study 3):
CN1CCC[C@@H]1Cc1c[nH]c2ccc(CCS(=O)(=O)c3ccccc3)cc12: 95.7%
Cc1[nH]c2ccccc2c1CCNCc1ccc(/C=C/C(=O)NO)cc1: 19.3%
Cc1nnc(SCC2=C(C(=O)O)N3C(=O)[C@@H](NC(=O)Cn4cnnn4)[C@H]3SC2)s1: 110%
Nc1c2ccccc2nc2ccccc12: 23.7%
CC(=O)OCC[N+](C)(C)C: 95.4%
O=C(O)c1cc(/N=N/c2ccc(O)c(C(=O)O)c2)ccc1O: 113%
